# Experimental data gathered from unrelated publications.
# Parts stem from different laboratories: compare values within a part only. Values joined by “and” are separate records of one study, mostly repeats; a detail may differ.
# Chain of UniProt Q9BXA7 (whole entry, looked up): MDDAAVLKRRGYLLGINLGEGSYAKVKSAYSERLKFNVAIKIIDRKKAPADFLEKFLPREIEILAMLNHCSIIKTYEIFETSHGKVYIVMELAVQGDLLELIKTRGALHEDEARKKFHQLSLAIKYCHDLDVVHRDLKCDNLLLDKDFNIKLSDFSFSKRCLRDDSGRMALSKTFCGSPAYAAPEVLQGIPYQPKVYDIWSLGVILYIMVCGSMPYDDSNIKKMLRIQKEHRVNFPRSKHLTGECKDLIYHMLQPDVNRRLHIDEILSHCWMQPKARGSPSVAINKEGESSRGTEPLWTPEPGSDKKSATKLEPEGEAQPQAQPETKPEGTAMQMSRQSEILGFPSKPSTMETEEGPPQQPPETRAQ
# Chain of UniProt Q15375 (whole entry, looked up): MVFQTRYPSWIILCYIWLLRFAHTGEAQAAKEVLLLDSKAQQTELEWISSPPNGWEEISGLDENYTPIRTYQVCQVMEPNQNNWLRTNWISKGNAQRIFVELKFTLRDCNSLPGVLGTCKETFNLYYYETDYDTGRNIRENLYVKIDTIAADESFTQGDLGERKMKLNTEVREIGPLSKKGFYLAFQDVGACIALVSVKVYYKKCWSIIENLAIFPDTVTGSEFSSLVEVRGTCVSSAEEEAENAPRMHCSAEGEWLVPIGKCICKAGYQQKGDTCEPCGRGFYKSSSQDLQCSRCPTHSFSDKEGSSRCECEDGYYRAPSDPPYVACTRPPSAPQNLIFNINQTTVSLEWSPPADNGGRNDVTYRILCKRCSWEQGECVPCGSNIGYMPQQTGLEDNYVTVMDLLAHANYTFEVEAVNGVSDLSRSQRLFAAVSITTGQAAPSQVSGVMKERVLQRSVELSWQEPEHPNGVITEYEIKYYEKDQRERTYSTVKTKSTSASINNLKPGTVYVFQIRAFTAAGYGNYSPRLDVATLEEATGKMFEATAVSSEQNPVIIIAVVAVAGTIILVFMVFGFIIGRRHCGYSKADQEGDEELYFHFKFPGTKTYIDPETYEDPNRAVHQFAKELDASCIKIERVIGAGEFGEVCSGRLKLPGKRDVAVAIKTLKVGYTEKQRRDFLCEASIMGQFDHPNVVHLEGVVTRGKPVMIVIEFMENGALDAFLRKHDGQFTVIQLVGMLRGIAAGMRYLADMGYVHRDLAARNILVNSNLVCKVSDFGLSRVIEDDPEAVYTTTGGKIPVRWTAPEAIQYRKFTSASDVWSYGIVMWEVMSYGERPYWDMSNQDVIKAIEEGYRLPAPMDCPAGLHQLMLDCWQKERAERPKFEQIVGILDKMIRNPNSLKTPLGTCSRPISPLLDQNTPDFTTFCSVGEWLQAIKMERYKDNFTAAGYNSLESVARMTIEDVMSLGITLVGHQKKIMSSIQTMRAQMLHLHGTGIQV
# Chain of UniProt O75582 (whole entry, looked up): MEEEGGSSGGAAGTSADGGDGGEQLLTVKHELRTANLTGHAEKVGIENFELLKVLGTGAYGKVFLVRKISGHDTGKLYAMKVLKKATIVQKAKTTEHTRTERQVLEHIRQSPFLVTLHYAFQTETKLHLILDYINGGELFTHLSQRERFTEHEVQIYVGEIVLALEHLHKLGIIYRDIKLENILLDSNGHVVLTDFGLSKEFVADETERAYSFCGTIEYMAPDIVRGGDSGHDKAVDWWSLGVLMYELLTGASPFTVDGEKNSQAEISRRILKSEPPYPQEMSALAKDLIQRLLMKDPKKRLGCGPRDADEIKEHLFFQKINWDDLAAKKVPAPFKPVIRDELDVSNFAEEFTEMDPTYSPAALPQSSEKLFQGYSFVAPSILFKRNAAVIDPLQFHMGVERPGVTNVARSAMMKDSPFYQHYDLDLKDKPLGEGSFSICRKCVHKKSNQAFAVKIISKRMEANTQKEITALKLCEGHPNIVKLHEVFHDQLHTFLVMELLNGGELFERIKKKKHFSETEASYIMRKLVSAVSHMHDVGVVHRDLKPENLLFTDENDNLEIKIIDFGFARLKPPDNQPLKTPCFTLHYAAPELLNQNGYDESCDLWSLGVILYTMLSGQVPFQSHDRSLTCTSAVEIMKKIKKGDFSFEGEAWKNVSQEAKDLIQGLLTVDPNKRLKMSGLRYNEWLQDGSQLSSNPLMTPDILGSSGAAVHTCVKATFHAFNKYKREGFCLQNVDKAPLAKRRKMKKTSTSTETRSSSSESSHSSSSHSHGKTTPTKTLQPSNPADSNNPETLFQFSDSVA
# Chain of UniProt Q9UKI8 (whole entry, looked up): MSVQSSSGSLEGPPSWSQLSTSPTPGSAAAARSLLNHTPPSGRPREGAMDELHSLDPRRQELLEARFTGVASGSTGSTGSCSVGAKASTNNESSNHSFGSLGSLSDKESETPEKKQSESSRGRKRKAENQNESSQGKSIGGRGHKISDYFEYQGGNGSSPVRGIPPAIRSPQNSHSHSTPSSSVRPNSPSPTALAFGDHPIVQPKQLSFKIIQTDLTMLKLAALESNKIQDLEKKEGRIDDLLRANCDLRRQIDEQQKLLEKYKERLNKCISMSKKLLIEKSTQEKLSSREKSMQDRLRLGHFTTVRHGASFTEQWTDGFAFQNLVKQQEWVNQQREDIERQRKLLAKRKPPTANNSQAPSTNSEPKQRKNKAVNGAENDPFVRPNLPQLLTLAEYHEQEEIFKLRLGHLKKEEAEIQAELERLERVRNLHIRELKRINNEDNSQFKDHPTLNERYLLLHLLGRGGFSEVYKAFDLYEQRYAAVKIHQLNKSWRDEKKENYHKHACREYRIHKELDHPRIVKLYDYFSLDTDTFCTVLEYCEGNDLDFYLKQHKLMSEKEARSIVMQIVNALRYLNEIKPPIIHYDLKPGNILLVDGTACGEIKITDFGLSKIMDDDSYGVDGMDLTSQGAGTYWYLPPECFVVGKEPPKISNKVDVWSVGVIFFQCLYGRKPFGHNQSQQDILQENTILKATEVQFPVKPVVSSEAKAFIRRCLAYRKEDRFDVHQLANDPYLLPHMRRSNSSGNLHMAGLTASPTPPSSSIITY
# Chain of UniProt Q00536 (whole entry, looked up): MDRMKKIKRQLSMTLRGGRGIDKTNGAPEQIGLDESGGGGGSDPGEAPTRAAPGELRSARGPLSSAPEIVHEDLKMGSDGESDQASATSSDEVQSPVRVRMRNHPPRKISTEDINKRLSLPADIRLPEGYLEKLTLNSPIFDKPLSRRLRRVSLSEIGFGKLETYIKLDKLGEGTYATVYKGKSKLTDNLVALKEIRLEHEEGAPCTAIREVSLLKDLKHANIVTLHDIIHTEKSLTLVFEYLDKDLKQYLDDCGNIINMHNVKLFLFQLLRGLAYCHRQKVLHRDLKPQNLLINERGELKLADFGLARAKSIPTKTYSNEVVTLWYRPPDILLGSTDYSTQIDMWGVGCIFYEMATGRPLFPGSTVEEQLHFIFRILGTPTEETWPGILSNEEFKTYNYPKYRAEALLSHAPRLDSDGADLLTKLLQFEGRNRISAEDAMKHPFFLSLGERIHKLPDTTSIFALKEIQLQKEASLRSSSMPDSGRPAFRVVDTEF
# Chain of UniProt Q15759 (whole entry, looked up): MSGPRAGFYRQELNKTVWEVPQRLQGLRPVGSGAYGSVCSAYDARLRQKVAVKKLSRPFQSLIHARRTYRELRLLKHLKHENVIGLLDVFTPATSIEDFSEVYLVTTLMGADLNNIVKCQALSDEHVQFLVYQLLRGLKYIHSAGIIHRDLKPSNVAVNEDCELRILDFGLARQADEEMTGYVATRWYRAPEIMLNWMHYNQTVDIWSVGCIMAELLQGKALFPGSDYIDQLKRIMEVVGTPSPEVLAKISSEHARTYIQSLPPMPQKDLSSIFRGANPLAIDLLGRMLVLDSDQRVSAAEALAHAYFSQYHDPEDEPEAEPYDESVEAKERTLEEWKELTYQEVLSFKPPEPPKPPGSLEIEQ

# Series 1
# Target: Dual specificity tyrosine-phosphorylation-regulated kinase 1B (DYRK1B, Homo sapiens, UniProt Q9Y463)
# Observed: enzyme activity
# Action: inhibitor
# Method: radiometric
# Tested at: 0.5 µM
SMILES,remaining activity [%]
N#CC(C#N)=C(N)/C(C#N)=C/c1ccc(O)cc1,101
CN(C)c1ccc(C=C2C(=O)Nc3ccccc32)cc1,106
COc1ccc(OC)c2c(=S)c3ccccc3[nH]c12,107
O=c1cc(N2CCNCC2)oc2c(-c3ccccc3)cccc12,99.2
COC(=O)[C@]1(O)C[C@@H]2O[C@@]1(C)n1c3ccccc3c3c4c(c5c6ccccc6n2c5c31)C(=O)NC4,3.88
N#CCCc1ccc2c(c1)-c1[nH]c3ccc([N+](=O)[O-])cc3c1CC(=O)N2,76.8
COc1cc2ncnc(Nc3ccc(F)c(Cl)c3)c2cc1OCCCN1CCOCC1,91.9
O=C(CCCc1ccc(-c2ccccc2F)cc1)Nc1ccc(O)cc1,108
O=C1NC(=O)c2cc(Nc3ccc(F)cc3)c(Nc3ccc(F)cc3)cc21,105
Nc1ncnc2n[nH]c(Nc3ccc(F)cc3)c12,99.2
Oc1ccc(-c2nc(-c3ccncc3)c(-c3ccc(F)cc3)[nH]2)cc1,105
CO[C@H]1C[C@@H]2CC[C@@H](C)[C@@](O)(O2)C(=O)C(=O)N2CCCC[C@H]2C(=O)O[C@H]([C@H](C)C[C@@H]2CC[C@@H](O)[C@H](OC)C2)CC(=O)[C@H](C)/C=C(\C)[C@@H](O)[C@@H](OC)C(=O)[C@H](C)C[C@H](C)/C=C/C=C/C=C/1C,108
O=C1Nc2ccc3ncsc3c2/C1=C/c1cnc[nH]1,11.3
COc1ccc(C(=O)Nc2sc3c(c2C(N)=O)CCCC3)cc1OC,104

# Series 2
# SMILES: Cn1cncc1[C@](O)(COc1ccc(C#N)cc1-c1ccc(OC(F)(F)F)cc1)c1ccc(C#N)cc1
# Observed: cell-free assay
# Method: competition with immobilised ligand
# Tested at: 1 µM
target,remaining binding [%]
"Ribosomal protein S6 kinase alpha-5, N-terminal kinase domain (RPS6KA5, Homo sapiens, UniProt O75582)",94
"BMP2K (Homo sapiens, UniProt Q9NSY1)",97
"Tyrosine-protein kinase JAK1, JH1 (JAK1, Homo sapiens, UniProt P23458)",59
"MAPK11 (Homo sapiens, UniProt Q15759)",90
"TLK1 (Homo sapiens, UniProt Q9UKI8)",100
"EPHA7 (Homo sapiens, UniProt Q15375)",91
"DCLK2 (Homo sapiens, UniProt Q8N568)",98
"TSSK1B (Homo sapiens, UniProt Q9BXA7)",100
"CDK16 (Homo sapiens, UniProt Q00536)",100

# Series 3
# Cell line: mouse MPNST tumor cells
# Method: high-content nuclear imaging
# Refers to: cell number
# Tested at: 10 µM
# Time: 12 h
# Setting: mean of 2 replicates
# Baseline: plate mean
# Direction: higher = more cells
SMILES,nuclei count
CC(=O)N1N=C(c2ccc(N)cc2)c2cc3c(cc2C[C@H]1C)OCO3,1.15 z-score
Cc1cc(C(C#N)c2ccc(Cl)cc2)c(Cl)cc1NC(=O)c1cc(I)cc(I)c1O (stereo not drawn),1.84 z-score
C[N+]1(C)CCOC(O)(c2ccc(-c3ccc(C4(O)C[N+](C)(C)CCO4)cc3)cc2)C1 (stereo not drawn),0.335 z-score

# Other studies, line by line
# Observed: necroptosis protection
# Method: CCK-8
Compound,cell line,conditions,viability
CC(C)(C)c1nc(-c2cccc(NS(=O)(=O)c3c(F)cccc3F)c2F)c(-c2ccnc(N)n2)s1,L929,"0.391 µM, added: TNF-α-induced",18.8%
CC(C)S(=O)(=O)c1ccc2nccc(Nc3ccc4scnc4c3)c2c1,L929,"0.313 µM, added: TNF-α plus zVAD",16.4%
CC[C@H](C)c1nc2cc(Nc3ccnc4ccc(S(=O)(=O)C(C)C)cc34)ccc2s1.Cl,HT-29,"0.625 µM, added: TNF-α SMAC mimetic zVAD",13.1% and 19.8% and 25.2% and 25.1% and 20.7%
CC(C)S(=O)(=O)c1ccc2nccc(Nc3ccc4sc(C5CCCC5)nc4c3)c2c1,L929,"0.313 µM, added: TNF-α plus zVAD",34.3%
